Measurements gathered from unrelated publications.
Compare with care: the assays were run in different laboratories. ± marks the error that the study gave.
inhA: Enoyl-[acyl-carrier-protein] reductase [NADH] (inhA, Mycobacterium tuberculosis, UniProt P9WGR1)
ache: Acetylcholinesterase (ache, Electrophorus electricus, UniProt O42275)
4'-phosphopantetheinyl transferase PptT: 4'-phosphopantetheinyl transferase PptT (Mycobacterium tuberculosis, UniProt O33336)
ACHE: Acetylcholinesterase (ACHE, Homo sapiens, UniProt P22303)

Amino acid sequences for entries named in this document (tags omitted). Residues count along the entry.
UniProt P9WGR1, whole entry: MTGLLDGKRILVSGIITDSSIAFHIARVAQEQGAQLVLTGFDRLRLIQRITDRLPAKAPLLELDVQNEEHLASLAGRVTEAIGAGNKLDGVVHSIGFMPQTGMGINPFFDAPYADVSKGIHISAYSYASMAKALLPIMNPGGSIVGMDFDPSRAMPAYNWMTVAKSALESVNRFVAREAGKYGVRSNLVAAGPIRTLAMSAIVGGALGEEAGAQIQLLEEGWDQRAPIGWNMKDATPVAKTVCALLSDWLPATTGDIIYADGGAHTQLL
UniProt O42275, whole entry, looked up: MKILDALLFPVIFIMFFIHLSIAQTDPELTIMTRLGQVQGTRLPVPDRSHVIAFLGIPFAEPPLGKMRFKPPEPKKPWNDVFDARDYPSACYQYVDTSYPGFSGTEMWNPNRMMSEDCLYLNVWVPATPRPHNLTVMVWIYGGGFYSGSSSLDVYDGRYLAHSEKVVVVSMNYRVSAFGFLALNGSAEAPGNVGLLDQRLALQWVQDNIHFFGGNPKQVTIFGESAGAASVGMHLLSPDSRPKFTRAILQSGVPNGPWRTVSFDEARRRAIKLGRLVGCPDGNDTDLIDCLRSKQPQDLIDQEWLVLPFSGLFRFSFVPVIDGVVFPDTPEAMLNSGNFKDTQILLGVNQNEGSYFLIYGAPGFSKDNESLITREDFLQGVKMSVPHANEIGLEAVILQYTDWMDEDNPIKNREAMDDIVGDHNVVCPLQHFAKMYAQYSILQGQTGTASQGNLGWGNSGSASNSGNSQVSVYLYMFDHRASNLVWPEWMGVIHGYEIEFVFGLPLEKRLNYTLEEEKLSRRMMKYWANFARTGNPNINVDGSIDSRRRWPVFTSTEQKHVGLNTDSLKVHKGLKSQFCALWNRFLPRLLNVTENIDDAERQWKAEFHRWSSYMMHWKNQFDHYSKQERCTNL
UniProt O33336, whole entry: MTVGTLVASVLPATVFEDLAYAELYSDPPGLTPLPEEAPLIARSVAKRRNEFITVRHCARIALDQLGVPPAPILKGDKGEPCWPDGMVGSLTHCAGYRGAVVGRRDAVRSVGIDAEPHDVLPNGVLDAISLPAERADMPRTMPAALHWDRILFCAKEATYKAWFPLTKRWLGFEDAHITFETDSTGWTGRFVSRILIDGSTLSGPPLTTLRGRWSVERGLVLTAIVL
UniProt P22303, whole entry, looked up: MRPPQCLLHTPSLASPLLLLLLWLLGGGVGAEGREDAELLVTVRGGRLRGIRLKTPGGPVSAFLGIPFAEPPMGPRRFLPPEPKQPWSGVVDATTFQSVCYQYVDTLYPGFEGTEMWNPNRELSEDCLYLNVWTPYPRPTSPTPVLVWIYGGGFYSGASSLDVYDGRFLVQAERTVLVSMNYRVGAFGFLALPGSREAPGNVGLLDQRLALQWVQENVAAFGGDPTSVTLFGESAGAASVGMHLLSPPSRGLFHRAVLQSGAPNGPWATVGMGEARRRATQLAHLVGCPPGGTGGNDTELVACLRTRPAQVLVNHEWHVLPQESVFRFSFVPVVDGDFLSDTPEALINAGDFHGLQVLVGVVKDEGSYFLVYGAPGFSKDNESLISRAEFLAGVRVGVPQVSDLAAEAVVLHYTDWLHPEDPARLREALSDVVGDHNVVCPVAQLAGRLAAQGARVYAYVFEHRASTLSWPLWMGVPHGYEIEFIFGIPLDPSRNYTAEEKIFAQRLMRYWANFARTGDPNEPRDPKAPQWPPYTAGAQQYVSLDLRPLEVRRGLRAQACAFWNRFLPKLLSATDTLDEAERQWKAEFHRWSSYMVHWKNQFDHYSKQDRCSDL
UniProt P02550, whole entry: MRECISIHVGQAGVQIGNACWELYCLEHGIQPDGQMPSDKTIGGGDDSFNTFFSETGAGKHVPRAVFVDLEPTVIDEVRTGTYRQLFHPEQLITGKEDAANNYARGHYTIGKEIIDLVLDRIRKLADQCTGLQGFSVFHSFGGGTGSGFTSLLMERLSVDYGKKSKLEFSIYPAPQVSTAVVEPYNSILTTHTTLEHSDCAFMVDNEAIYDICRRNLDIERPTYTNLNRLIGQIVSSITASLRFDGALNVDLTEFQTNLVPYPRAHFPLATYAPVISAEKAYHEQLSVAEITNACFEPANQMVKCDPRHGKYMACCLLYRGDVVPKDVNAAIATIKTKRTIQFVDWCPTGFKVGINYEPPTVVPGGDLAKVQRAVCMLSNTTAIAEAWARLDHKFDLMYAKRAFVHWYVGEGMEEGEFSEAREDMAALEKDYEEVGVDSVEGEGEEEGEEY
UniProt P02554, whole entry: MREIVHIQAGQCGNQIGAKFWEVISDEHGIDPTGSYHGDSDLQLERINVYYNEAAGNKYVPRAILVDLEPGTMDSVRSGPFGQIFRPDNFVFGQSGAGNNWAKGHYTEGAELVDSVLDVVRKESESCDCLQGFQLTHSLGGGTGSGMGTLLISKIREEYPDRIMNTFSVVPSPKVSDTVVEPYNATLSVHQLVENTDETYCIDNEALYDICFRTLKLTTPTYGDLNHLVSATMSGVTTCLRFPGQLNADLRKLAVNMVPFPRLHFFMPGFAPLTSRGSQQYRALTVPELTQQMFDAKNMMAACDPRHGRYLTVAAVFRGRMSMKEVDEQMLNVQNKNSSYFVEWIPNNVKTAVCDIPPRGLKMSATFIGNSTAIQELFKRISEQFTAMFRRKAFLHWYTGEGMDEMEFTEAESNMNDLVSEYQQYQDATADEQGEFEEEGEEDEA
UniProt P06276, whole entry, looked up: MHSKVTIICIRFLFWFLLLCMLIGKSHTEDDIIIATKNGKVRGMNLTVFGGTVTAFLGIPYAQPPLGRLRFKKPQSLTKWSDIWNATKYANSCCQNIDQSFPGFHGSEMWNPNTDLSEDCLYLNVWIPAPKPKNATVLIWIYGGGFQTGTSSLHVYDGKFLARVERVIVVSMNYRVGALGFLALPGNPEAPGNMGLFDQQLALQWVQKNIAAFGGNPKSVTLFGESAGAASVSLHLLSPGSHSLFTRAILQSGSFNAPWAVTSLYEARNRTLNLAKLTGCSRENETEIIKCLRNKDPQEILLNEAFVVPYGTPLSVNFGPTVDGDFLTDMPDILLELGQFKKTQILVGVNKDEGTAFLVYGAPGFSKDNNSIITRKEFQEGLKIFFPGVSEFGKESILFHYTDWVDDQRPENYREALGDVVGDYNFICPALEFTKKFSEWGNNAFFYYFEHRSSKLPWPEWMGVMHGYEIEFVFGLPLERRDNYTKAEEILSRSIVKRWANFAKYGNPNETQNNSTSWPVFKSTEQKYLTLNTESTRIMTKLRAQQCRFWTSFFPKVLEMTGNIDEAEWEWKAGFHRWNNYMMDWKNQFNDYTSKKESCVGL
UniProt O95551, whole entry: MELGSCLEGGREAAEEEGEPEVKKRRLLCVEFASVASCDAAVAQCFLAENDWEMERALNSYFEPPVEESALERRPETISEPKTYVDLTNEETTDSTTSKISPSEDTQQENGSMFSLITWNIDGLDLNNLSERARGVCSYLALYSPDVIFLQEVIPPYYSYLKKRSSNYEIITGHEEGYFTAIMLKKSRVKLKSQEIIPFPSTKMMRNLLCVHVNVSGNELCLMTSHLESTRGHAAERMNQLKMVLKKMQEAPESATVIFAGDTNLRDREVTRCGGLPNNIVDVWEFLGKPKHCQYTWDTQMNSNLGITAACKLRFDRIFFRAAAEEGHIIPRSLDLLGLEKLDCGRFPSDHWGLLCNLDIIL
UniProt P34969, whole entry: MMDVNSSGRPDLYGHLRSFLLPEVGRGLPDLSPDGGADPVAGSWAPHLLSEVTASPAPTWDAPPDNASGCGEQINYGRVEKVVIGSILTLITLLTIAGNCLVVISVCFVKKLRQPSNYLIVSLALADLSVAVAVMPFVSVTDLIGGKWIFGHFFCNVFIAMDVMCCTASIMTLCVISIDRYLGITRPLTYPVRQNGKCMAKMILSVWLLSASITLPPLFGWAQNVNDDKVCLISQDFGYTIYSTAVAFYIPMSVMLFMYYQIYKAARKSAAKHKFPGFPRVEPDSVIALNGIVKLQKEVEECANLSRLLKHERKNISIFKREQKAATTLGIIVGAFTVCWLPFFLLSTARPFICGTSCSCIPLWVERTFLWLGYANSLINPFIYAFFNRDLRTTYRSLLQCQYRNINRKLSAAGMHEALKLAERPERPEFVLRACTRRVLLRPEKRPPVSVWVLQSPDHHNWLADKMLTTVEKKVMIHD
UniProt P9WPP7, whole entry: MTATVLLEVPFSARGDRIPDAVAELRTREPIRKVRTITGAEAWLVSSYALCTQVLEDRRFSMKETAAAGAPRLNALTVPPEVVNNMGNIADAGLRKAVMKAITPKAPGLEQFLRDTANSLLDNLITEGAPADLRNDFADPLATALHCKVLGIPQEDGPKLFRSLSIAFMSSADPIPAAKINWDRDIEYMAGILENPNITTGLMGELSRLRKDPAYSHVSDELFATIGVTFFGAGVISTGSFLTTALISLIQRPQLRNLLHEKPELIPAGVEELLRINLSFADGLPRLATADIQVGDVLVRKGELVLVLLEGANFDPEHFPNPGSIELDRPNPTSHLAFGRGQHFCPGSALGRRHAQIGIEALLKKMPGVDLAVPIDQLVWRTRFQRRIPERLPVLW
UniProt P36544, 23-502 limits assumed: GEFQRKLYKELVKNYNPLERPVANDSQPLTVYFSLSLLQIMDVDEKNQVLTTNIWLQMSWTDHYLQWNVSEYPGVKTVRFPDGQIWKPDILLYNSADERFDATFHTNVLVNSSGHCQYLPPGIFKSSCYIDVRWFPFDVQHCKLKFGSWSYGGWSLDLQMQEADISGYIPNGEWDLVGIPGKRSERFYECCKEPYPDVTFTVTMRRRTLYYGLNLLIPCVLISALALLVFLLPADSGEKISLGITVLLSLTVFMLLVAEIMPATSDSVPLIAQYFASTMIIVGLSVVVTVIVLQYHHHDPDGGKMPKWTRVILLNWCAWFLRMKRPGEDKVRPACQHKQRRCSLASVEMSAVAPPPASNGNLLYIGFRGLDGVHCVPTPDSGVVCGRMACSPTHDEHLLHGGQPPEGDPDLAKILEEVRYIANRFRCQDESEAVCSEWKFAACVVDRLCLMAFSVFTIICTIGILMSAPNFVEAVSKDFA
UniProt Q01827, whole entry: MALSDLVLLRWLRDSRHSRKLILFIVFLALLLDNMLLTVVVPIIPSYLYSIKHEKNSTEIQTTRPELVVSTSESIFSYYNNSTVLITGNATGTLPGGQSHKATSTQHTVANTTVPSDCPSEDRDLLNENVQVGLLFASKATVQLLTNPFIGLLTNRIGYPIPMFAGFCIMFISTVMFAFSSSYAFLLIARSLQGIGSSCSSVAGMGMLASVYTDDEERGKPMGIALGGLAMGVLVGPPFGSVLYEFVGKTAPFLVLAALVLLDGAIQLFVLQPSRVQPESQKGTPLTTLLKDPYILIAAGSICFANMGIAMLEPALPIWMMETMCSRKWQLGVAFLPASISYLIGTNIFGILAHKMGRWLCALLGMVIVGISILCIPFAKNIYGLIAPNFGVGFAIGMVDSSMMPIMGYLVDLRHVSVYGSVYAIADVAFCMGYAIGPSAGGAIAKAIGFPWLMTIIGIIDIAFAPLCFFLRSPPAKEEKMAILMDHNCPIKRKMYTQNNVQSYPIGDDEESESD

Compound | tested on | assay | test system | conditions | quantity | value
Oc1cc(-c2nn[nH]n2)ccc1Oc1ccc(Cl)cc1Cl | inhA | inhibitor | – | – | IC50 | > 10 µM
C=CC(=O)Nc1cc(-n2c(=O)ccc3cnc4ccc(-c5cn[nH]c5)cc4c32)ccc1C | NB-4 | cell growth | – | 72 h | GI50 | 950 nM
CN1CC[C@]23c4c5ccc(O)c4O[C@H]2c2ncc(-c4ccc(Cl)cc4)cc2C[C@@]3(OCCCc2ccccc2)[C@H]1C5 | – | tolerance | CD-1 mouse, HIV neuropathy | sc, 1 mg/kg twice daily, 3 days | days to zero efficacy | 2.1 days
c1cc(C2CCNCC2)c2ccncc2c1 | ache | enzyme activity, inhibitor, Ellman | – | 10 min preincubation, pH 8, 23 °C | IC50 | 220 ± 10 µM
CCOC(=O)CC[C@H](NC(=O)c1ccc(N(C)Cc2ccc3c(c2)CCC(=O)N3)cc1)C(=O)OCC | 4'-phosphopantetheinyl transferase PptT | enzyme activity, inhibitor, fluorescence polarization | – | – | IC50 | > 25 µM
c1ccc2c[n+](CCCCCCCC[n+]3ccc4ccccc4c3)ccc2c1 | ACHE | enzyme activity, inhibitor | – | – | IC50 | 0.005 ± 0.001 µM
CC[C@H](C)[C@@H]([C@@H](CC(=O)N1CCC[C@H]1[C@H](OC)[C@@H](C)C(=O)NCCc1ccccc1)OC)N(C)C(=O)[C@@H](NC(=O)[C@H](C(C)C)N(C)C)C(C)C [isotope labelled] | Tubulin alpha-1A/beta chain (Sus scrofa, UniProt P02550+P02554) | microtubule polymerization, inhibitor | – | 30 min, 37 °C | IC50 | 2.2 ± 0.6 µM
c1ccc2c(c1)ccc[n+]2CCCCCCCCCC[n+]1cccc2ccccc21 | Cholinesterase (BCHE, Homo sapiens, UniProt P06276) | enzyme activity, inhibitor | – | – | IC50 | 0.1 ± 0.02 µM
NC[C@@H](NC[C@@H]1CCCN1C[C@@H](CO)NC[C@@H](NCCc1ccc(Cl)c(Cl)c1)c1ccccc1)c1ccccc1 | Klebsiella pneumoniae | bacterial growth | – | 24 µM, fold shift of IC90, with: amikacin | potentiation of amikacin | 2 fold
N#Cc1ccc(-c2ccc(COCCc3ccc(-c4nc5cc(-c6ccccc6)ccn5c4Nc4ccc(C(=O)O)cc4)cc3)cc2)nc1 | TDP2 (Homo sapiens, UniProt O95551) | enzyme activity, inhibitor | – | – | IC50 | > 100 µM
CC(C)(C)c1cc[n+](CCCCCCCC[n+]2ccc(C(C)(C)C)cc2)cc1 | ACHE | enzyme activity, inhibitor | – | – | IC50 | 0.005 ± 0.0009 µM
COc1ccc(CN[C@@H]2CO[C@H](C(c3ccccc3)c3ccccc3)C[C@H]2O)cc1 | HTR7 (Homo sapiens, UniProt P34969) | radioligand binding | – | 10 µM, with: [3H]LSD | inhibition | 15.6%
CCCCCCCCN(O)C(=O)Cc1ccc(O)c(OC)c1 | ADAM17 (Oryctolagus cuniculus, UniProt G1SZC8) | enzyme activity, inhibitor | Oryctolagus cuniculus, treated cornea extract | – | IC50 | 0.52 nmol
C=CC(c1ccc(-c2ccc3cc(OC)ccc3c2)cc1)n1ccnc1 (single isomer, unassigned) | cyp121 (Mycobacterium tuberculosis, UniProt P9WPP7) | – | – | enantiomer E2 | Kd | 700 nM
C(=C\CN1CCc2sccc2C1)/CN1CCc2sccc2C1 | ache | enzyme activity, inhibitor, Ellman | – | 10 min preincubation, pH 8, 23 °C | IC50 | 331 ± 8 µM
C[C@@H]1NC(=O)[C@H](Cc2ccccc2)NC(=O)[C@H](CCCNC(=N)N)NC(=O)[C@@H]2CCCN2C(=O)[C@H](CC(=O)O)NC(=O)[C@H](CO)NC(=O)[C@@H](NC(=O)[C@H](Cc2cnc[nH]2)NC(=O)CN)CSSC[C@@H](C(N)=O)NC(=O)[C@H](CCCNC(=N)N)NC(=O)[C@H](Cc2c[nH]c3ccccc23)NC1=O | CHRNA7 (Homo sapiens, UniProt P36544) | ACh-evoked current, inhibitor, two-electrode voltage clamp | Xenopus laevis oocytes | with: 100 µM ACh | IC50 | 9.59 ± 0.62 µM
NC[C@@H](NC[C@@H]1CCCN1C[C@@H](CO)NC[C@@H](NCCC1CC2CCC1C2)c1ccccc1)c1ccccc1 (stereo partly shown) | Escherichia coli | bacterial growth | – | 16 µM, fold shift of IC90, with: amikacin | potentiation of amikacin | 2.3 fold
NCCNCCSc1ccccc1 | – | spectrophotometry | – | pH 5.2 | pKa | 5.51
CC(O)c1cc2[nH]c(=S)n(Cc3cccnc3)c(=O)c2cc1Cl (single isomer, unassigned) | 4'-phosphopantetheinyl transferase PptT | enzyme activity, inhibitor, fluorescence polarization | – | – | IC50 | 31.7 µM
CCCc1ccc(Oc2ccc(Cl)cc2Cl)c(O)c1 | inhA | inhibitor | – | – | IC50 | 0.091 ± 0.015 µM
C[C@H](CS)C(=O)N[C@@H](Cc1c[nH]c2ccccc12)C(=O)O | Escherichia coli | – | IMP-1 producing | 25 µM, with: meropenem | MIC of meropenem | 32 mg/L
NC(=O)c1ccc(Oc2ccc(Cl)cc2Cl)c(O)c1 | inhA | inhibitor | – | – | IC50 | > 10 µM
CC[C@H]1C[C@@H]2C[C@H]3c4c(c5cc(C#N)ccc5n4C)CCN(C2)[C@@H]13 | Slc18a2 (Rattus norvegicus, UniProt Q01827) | [3H]5-HT uptake, inhibitor | rat brain synaptic vesicles | with: [3H]5-HT | IC50 | 1.32 ± 0.145 µM
O=C(O)c1ccc(Oc2ccc(Cl)cc2Cl)c(O)c1 | inhA | inhibitor | – | – | IC50 | > 10 µM
CCN(CC)Cc1cc(N)ccc1O | ACHE | enzyme activity, inhibitor | – | with: acetylthiocholine | IC50 | 17.8 µM
